Published values of several laboratories.
Protocols differ between the studies behind these lines. ± marks the error that the study gave.

SMILES = CS(=O)(=O)c1ccc([C@@H](O)[C@@H](CF)NC(=O)C(Cl)Cl)cc1; test system = Arbor Acres chickens, plasma; conditions = oral, 20 mg/kg, with: quercetin 40 mg/kg pretreatment; Tmax = 0.75 ± 0.18 h
SMILES = CC#Cc1cncc(-c2ccc3c(c2)[C@@]2(N=C(C)C(N)=N2)[C@]2(CC[C@H](OC)CC2)C3)c1; test system = Dunkin-Hartley guinea pigs, male, CSF; conditions = oral, single dose NG; Tmax = 2 h
SMILES = O=C(O)c1cc(O)c(O)c(O)c1; assay = LC-MS/MS; test system = male Ross broilers, serum; conditions = oral, 0.49 mg/kg BW; Tmax = 1 ± 0.92 h
SMILES = COc1ccc([C@@H](O)c2cc(-c3ncnc4cc(N5CCOCC5)ccc34)c(F)cc2Cl)nn1; assay = median; test system = healthy volunteers, plasma; conditions = oral, 100 mg, fasted tablet; Tmax = 1 h
SMILES = CN[C@H](CC(C)C)C(=O)N[C@H]1C(=O)N[C@@H](CC(N)=O)C(=O)N[C@H]2C(=O)N[C@H]3C(=O)N[C@H](C(=O)N[C@H](C(=O)O)c4cc(O)cc(O)c4-c4cc3ccc4O)[C@H](O)c3ccc(c(Cl)c3)Oc3cc2cc(c3O[C@@H]2O[C@H](CO)[C@@H](O)[C@H](O)[C@H]2O[C@H]2C[C@](C)(N)[C@H](O)[C@H](C)O2)Oc2ccc(cc2Cl)[C@H]1O; test system = guinea pig, serum; conditions = intraperitoneal, 15 mg/kg, single dose; Tmax = 0.5 h
SMILES = CCCCC[C@H](O)CC[C@@H]1[C@H]2Cc3cccc(OCC(=O)O)c3C[C@H]2C[C@H]1O; assay = LC-MS/MS; test system = Japanese PAH patients on background ERA, plasma; conditions = inhaled, 54 µg, mean; Tmax = 0.16 h
SMILES = O=C(c1cccnc1-c1ccncc1)N1CCC(O)(Cc2ccccc2)CC1; test system = healthy Japanese adults, plasma; conditions = oral, 1200 mg single dose; Tmax = 0.5 h
SMILES = C[C@H]1CN(C(=O)CC#N)[C@]12CCN(c1ncnc3[nH]ccc13)C2; test system = healthy Japanese males, plasma; conditions = oral, 50 mg single dose; Tmax = 1 h
SMILES = Cc1ccc(NC(=O)c2ccc(CN3CCN(C)CC3)cc2)cc1Nc1nccc(-c2cncc(-c3oncc3C)c2)n1; test system = Parkinson's disease patients, plasma; conditions = oral, 50 mg/day, 7 days, steady state; Tmax = 3.6 ± 1.4 h
SMILES = C[C@H]1[C@H]2N(C(=O)CN(C)N2C(=O)NCc2ccccc2)[C@@H](Cc2ccc(OP(=O)(O)O)cc2)C(=O)N1Cc1cccc2cccnc12; test system = patients, plasma; conditions = intravenous infusion, 280 mg/m2 over 4 h, mean; Tmax = 1 h
SMILES = CCCCCCCCCCCCCCCC(=O)N[C@@H](CCC(=O)NCCCC[C@@H]1NC(=O)[C@H]([C@@H](C)CC)NC(=O)[C@@H](NC(=O)[C@@H]2CCCN2C(=O)[C@H](Cc2ccccc2)NC(=O)[C@H](Cc2c[nH]cn2)NC(=O)[C@@H](NC(=O)[C@H](CC(=O)O)NC(=O)CC(C)C)[C@@H](C)O)CSSC[C@@H](C(=O)N[C@@H](CCCCN)C(N)=O)NC(=O)CNC(=O)[C@H](CCCCN)NC(=O)[C@H](CO)NC(=O)[C@H](CCCNC(=N)N)NC(=O)[C@@H]2CCCN2C(=O)[C@H](CCC(=O)O)NC(=O)[C@H](Cc2ccccc2)NC1=O)C(=O)O; test system = healthy volunteers, plasma; conditions = subcutaneous, 45 mg single, lyophilised formulation, median; Tmax = 4 h
SMILES = CN(CCC(=O)O)C(=O)c1ccc2c(c1)CC[C@@H]1[C@@H]2CC[C@]2(C)C(c3cncc(F)c3)=CC[C@@H]12; test system = postmenopausal women, plasma; conditions = 90 mg once daily multiple dose, day 14, median; Tmax = 3 h
SMILES = O=C(c1ccccc1)c1ccc2n1CCC2C(=O)O (stereo not shown); test system = New Zealand White rabbit, male, plasma; conditions = oral, 10 mg/kg drug equivalent; Tmax = 1 h
SMILES = CCc1nc2c(C)cc(N3CCN(CC(=O)N4CC(O)C4)CC3)cn2c1N(C)c1nc(-c2ccc(F)cc2)c(C#N)s1; test system = healthy volunteers, fed, plasma; conditions = oral, 600 mg single dose, day 1, suspension; Tmax = 1 h
SMILES = C[C@@](Cc1ccc(O)c(O)c1)(NN)C(=O)O; test system = Parkinson's disease patients, plasma; conditions = oral, high levodopa AUC subgroup (11.5 µmol·h/L), median; Tmax = 2 h
SMILES = CO[C@H]1CC[C@H](N2C(=O)CNc3ncc(-c4ccc(C(C)(C)O)nc4)nc32)CC1; test system = patients, plasma; conditions = oral, 60 mg, day 15, median; Tmax = 1.58 h

Some of these lines once more:
SMILES = C[C@H]1[C@H]2N(C(=O)CN(C)N2C(=O)NCc2ccccc2)[C@@H](Cc2ccc(OP(=O)(O)O)cc2)C(=O)N1Cc1cccc2cccnc12; test system = patients, plasma; conditions = intravenous infusion, 280 mg/m2 over 4 h, mean; Tmax = 1 h
SMILES = CCCCCCCCCCCCCCCC(=O)N[C@@H](CCC(=O)NCCCC[C@@H]1NC(=O)[C@H]([C@@H](C)CC)NC(=O)[C@@H](NC(=O)[C@@H]2CCCN2C(=O)[C@H](Cc2ccccc2)NC(=O)[C@H](Cc2c[nH]cn2)NC(=O)[C@@H](NC(=O)[C@H](CC(=O)O)NC(=O)CC(C)C)[C@@H](C)O)CSSC[C@@H](C(=O)N[C@@H](CCCCN)C(N)=O)NC(=O)CNC(=O)[C@H](CCCCN)NC(=O)[C@H](CO)NC(=O)[C@H](CCCNC(=N)N)NC(=O)[C@@H]2CCCN2C(=O)[C@H](CCC(=O)O)NC(=O)[C@H](Cc2ccccc2)NC1=O)C(=O)O; test system = healthy volunteers, plasma; conditions = subcutaneous, 45 mg single, lyophilised formulation, median; Tmax = 4 h
